Measured values gathered from unrelated publications.
Several values in a cell are separate wells, animals, samples, runs or records. ± gives the spread as reported.
SGK1: Serine/threonine-protein kinase Sgk1 (SGK1, Homo sapiens, UniProt O00141)
Chain of UniProt O00141 (whole entry, looked up): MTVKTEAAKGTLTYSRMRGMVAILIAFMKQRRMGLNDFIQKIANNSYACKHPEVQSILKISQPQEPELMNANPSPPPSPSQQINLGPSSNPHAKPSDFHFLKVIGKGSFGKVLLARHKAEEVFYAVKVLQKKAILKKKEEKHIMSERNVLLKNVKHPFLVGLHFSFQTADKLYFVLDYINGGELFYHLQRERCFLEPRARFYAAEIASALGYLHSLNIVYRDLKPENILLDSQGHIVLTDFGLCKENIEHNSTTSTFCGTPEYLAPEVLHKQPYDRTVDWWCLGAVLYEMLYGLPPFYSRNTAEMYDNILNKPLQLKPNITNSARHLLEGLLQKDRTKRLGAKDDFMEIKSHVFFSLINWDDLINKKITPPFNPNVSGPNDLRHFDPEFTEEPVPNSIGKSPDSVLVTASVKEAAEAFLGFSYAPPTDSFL
Chain of UniProt O60307 (whole entry, looked up): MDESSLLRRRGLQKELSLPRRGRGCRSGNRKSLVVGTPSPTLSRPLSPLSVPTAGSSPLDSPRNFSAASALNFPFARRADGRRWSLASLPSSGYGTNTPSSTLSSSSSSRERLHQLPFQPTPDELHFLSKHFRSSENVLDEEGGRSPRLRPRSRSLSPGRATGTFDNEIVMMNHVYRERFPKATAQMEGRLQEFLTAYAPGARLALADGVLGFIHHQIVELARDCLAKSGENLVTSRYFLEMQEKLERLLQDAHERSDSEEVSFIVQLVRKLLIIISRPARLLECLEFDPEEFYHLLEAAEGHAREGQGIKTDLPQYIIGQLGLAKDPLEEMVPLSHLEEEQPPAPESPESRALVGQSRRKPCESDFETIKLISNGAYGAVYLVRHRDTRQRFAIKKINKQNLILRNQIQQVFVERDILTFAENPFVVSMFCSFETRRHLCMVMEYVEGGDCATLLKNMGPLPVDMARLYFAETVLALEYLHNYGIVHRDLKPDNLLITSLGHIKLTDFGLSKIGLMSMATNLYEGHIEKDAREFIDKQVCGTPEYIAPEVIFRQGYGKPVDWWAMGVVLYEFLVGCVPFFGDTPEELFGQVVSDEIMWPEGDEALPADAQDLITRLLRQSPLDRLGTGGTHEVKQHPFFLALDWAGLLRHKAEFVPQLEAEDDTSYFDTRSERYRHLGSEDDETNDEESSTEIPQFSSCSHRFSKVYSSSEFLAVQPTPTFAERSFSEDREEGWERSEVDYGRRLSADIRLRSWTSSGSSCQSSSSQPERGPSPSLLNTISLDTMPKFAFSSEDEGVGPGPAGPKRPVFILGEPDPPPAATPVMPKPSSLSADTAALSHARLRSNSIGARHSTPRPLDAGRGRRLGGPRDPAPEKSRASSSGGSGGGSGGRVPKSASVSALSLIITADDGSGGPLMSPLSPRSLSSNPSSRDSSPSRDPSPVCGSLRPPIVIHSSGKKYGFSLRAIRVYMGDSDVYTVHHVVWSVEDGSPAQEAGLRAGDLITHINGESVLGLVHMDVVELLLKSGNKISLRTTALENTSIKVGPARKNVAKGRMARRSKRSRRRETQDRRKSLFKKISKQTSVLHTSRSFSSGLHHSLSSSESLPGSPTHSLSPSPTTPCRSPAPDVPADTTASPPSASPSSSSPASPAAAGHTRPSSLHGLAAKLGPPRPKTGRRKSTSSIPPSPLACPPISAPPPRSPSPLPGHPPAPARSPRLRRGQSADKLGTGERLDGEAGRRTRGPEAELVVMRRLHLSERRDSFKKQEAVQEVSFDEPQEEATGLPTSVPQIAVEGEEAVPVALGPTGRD
Chain of UniProt P41587 (whole entry, looked up): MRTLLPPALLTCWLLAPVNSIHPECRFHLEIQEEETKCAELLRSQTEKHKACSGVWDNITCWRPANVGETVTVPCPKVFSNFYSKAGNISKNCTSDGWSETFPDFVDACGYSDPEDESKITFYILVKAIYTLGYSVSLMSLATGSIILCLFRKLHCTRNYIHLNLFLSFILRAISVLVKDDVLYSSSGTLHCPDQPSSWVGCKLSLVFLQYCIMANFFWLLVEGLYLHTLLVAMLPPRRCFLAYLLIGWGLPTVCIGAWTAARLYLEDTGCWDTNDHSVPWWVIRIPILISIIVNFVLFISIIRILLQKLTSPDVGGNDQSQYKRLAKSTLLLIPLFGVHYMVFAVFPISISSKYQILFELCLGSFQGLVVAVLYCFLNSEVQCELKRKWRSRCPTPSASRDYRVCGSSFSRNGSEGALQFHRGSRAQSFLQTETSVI

Compound	tested on	test	test system	conditions	scale	endpoint	result
CC[C@H](C)[C@H](NC(=O)[C@H](CO)NC(=O)[C@H](Cc1ccc(O)cc1)NC(=O)[C@H](Cc1ccc(O)cc1)NC(=O)[C@H](CC(N)=O)NC(=O)CNC(=O)[C@H](CO)NC(=O)[C@H](Cc1ccc(O)cc1)NC(=O)[C@H](CO)NC(=O)[C@H](CO)NC(=O)[C@H](CC(N)=O)NC(=O)COCCOCCNC(=O)CN1CCN(CC(=O)O)CCN(CC(=O)O)CCN(CC(=O)O)CC1)C(=O)N[C@@H](CC(C)C)C(N)=O [copper-64 labelled]		dynamic PET	tamoxifen-induced PDAC mouse model, metastases	1.9 min, CLDN4-expressing tumours		maximum metastasis uptake	31 %IA/cc
c1c[nH]c(CNCc2cc(CNCc3ccc[nH]3)cc(-c3cc(CNCc4ccc[nH]4)cc(Cn4cc(COCCOCCOCCOCCOCc5cn(Cc6cc(CNCc7ccc[nH]7)cc(-c7cc(CNCc8ccc[nH]8)cc(CNCc8ccc[nH]8)c7)c6)nn5)nn4)c3)c2)c1			hACE2 mice, bronchoalveolar lavage fluid	dose not given	relative to: control	IFN-gamma level	decreased
CC(C)[C@H]1NC(=O)C[C@H]2/C=C/CCSSC[C@@H](NC1=O)C(=O)N[C@H](Cc1cccc3ccccc13)C(=O)NCC(=O)O2	SGK1	enzyme activity, inhibitor		10 µM		inhibition	10.5%
C[C@H](NCc1ccc(-c2ccc(C(F)(F)F)cc2)cc1)C(N)=O		passive avoidance acquisition	APP/PS1 mice	oral, 10 mg/kg, 72 h, 3 days treatment		step-through latency	60.6 ± 16.7 s
NC(=NN=Cc1cccs1)[S][Ru+]([Cl])([P](c1ccccc1)(c1ccccc1)c1ccccc1)[P](c1ccccc1)(c1ccccc1)c1ccccc1.[Cl-]		DPPH scavenging, absorbance				IC50	44 µM
CC[C@H](C)[C@H](NC(=O)[C@H](CCCCN)NC(=O)CNC(=O)[C@H](CC(C)C)NC(=O)[C@H](Cc1ccccc1)NC(=O)[C@H](CCCCN)NC(=O)[C@H](CO)NC(=O)[C@H](Cc1ccccc1)NC(=O)[C@H](Cc1c[nH]c2ccccc12)NC(=O)[C@H](CCC(N)=O)NC(=O)[C@@H](NC(=O)[C@H](Cc1ccccc1)NC(=O)CCCCCNC(=O)CN1CCN(CC(=O)O)CCN(CC(=O)O)CCN(CC(=O)O)CC1)C(C)C)C(=O)N[C@@H](CCC(=O)O)C(=O)N1CCC[C@H]1C(=O)N[C@@H](CC(=O)O)C(=O)N[C@H](C(=O)N[C@@H](CO)C(=O)N[C@@H](CCC(N)=O)C(=O)N[C@H](C(=O)N[C@@H](CCC(N)=O)C(=O)N[C@@H](CC(=O)O)C(=O)N1CCC[C@H]1C(=O)N[C@@H](CC(N)=O)C(=O)N[C@@H](CC(=O)O)C(=O)N[C@@H](CCC(N)=O)C(=O)N[C@@H](Cc1ccc(O)cc1)C(=O)N[C@@H](CCC(=O)O)C(=O)N1CCC[C@H]1C(=O)N[C@@H](Cc1ccccc1)C(=O)O)C(C)C)C(C)C [copper-64 labelled]		dynamic PET	mouse both sexes, CT26 tumour, untreated, tumour	intravenous, 100 µCi/mouse, 450 s		SUVmean	0.6 SUV
CC[C@H](C)[C@@H]([C@@H](CC(=O)N1CCC[C@H]1[C@H](OC)[C@@H](C)C(=O)N[C@H](C)[C@@H](O)c1ccccc1)OC)N(C)C(=O)[C@@H](NC(=O)[C@H](C(C)C)N(C)C(=O)OCc1ccc(NC(=O)[C@H](CCCNC(N)=O)NC(=O)[C@@H](NC(=O)CCCCCN2C(=O)CC(SC[C@H](NC(=O)[C@H](CC(=O)O)NC(=O)[C@H](Cc3ccc(O)cc3)NC(=O)[C@H](Cc3c[nH]c4ccccc34)NC(=O)[C@@H](N)CCCNC(=N)N)C(=O)O)C2=O)C(C)C)cc1)C(C)C (stereo partly drawn)			C57BL/6 mouse, healthy, serum	intraperitoneal, 2.5 mg/kg, 6 h		concentration	not detected
Cc1ccc(S(=O)(=O)N2CC2C(=O)N(C)C)cc1 (stereo not drawn)			mouse, Lewis lung carcinoma	intraperitoneal, 170 mg/kg, 16 doses, day 11		tumour volume	604 mm3
CC(C)(C)C(=O)OCOP(=O)(OCOC(=O)C(C)(C)C)C1CCCN(O)C1=O (stereo not drawn)	BT-549					CC50	> 100 µM
COc1ccccc1-c1n[nH]c2nc(N[C@H]3CC[C@H](NS(=O)(=O)CC(C)C)CC3)ncc12		bead binding, competition bead pull-down, refers to: LINJ.02.0420	Leishmania donovani extract	10 µM	relative to: vehicle	relative abundance	0.83
CCN(Cc1ccccc1)C(=O)CCc1nc(CN2CCN(C(=O)Cc3ccc(OC)c(OC)c3)CC2)no1		current clamp	DRG neurons, naive rat	1 µM		action potential threshold	-5.78 ± 0.56 mV
N#CCc1ccc(O)cc1		DPPH radical		300 µg/mL		radical scavenging	8.2 ± 1.2%
N=C(N)NCCC[C@H](NC(=O)[C@H](Cc1c[nH]c2ccccc12)NC(=O)[C@H](CCCNC(=N)N)NC(=O)[C@H](CCCNC(=N)N)NC(=O)[C@@H]1CCCN1C(=O)[C@H](CCCCN)NC(=O)[C@@H](N)CCCNC(=N)N)C(=O)N[C@@H](Cc1c[nH]c2ccccc12)C(=O)N[C@@H](Cc1c[nH]c2ccccc12)C(=O)N1CCC[C@H]1C(=O)N[C@@H](CCCCN)C(=O)N[C@@H](CCCNC(=N)N)C(=O)N1CCC[C@H]1C(=O)O		absorbance at 734 nm		1 mg/mL, 5 min, room temperature		ABTS radical scavenging	0.724 fraction (0-1)
O=C1NC2(CC2)COc2ncc(F)cc2[C@H]2COCCN2c2ccn3ncc1c3n2			Sprague-Dawley rat, male, kidneys	oral, 20 mg/kg/day, 4 weeks dosing, end of recovery		organ-to-brain weight ratio	156 ± 18.8%
O=C(O)c1ccc(-c2nc(-c3ccccc3Cl)c3sccn23)cc1			C57BL/6 mice	dose not given, day 26, basal hematopoiesis		platelet count change	84.8% and 134% and 104%
CN(C)[C@H]1C[C@@]23CC[C@@]4(O2)C(=CC[C@]2(C)[C@@H](c5ccc6ccncc6c5)CC[C@H]24)C=C3[C@@H](O)[C@@H]1O	Microtubule-associated serine/threonine-protein kinase 3 (MAST3, Homo sapiens, UniProt O60307)	ATP probe labelling, inhibitor, KiNativ profiling		0.1 µM		inhibition	-0.4%
CCCC[C@@H]1NC(=O)[C@H](Cc2ccc(O)cc2)NC(=O)[C@@H]2CCCN2C(=O)[C@H](CC(=O)O)NC(=O)[C@H](C)NC(=O)[C@H](Cc2ccccc2)NC(=O)[C@@H]2CSCCC(=O)N3CN(CN(C3)C(=O)CCSC[C@@H](C(=O)N[C@@H](C)C(N)=O)NC1=O)C(=O)CCSC[C@H](NC(C)=O)C(=O)N[C@@H](CC(C)(C)C)C(=O)N1CCC[C@H]1C(=O)N[C@@H](CCC(=O)O)C(=O)N[C@H](CCCCNC(=O)CCc1cn(CCOCCOCCOCCN(CCOCCOCCOCCC(=O)N[C@H]3CSCCC(=O)N4CN5CN(C4)C(=O)CCSC[C@H](NC(=O)[C@@H](CC(=O)O)NC(=O)[C@H](Cc4cccc6ccccc46)NC(=O)[C@@H]4CCCN4C3=O)C(=O)N[C@@H](CCSC)C(=O)N[C@@H](CCCCNC(=N)N)C(=O)N[C@@H](CC(=O)O)C(=O)N[C@@H](Cc3c[nH]c4ccccc34)C(=O)N[C@@H](CO)C(=O)N[C@@H]([C@@H](C)O)C(=O)N3CCC[C@H]3C(=O)N3C[C@H](O)C[C@H]3C(=O)N[C@@H](Cc3c[nH]c4ccccc34)C(=O)N[C@H](C(N)=O)CSCCC5=O)CCOCCOCCOCCn3cc(CCC(=O)NCCCC[C@H]4NC(=O)[C@H](CCC(=O)O)NC(=O)[C@@H]5CCCN5C(=O)[C@H](CC(C)(C)C)NC(=O)[C@@H](NC(C)=O)CSCCC(=O)N5CN6CN(C5)C(=O)CCSC[C@H](NC(=O)[C@H](Cc5ccc(O)cc5)NC(=O)[C@@H]5CCCN5C4=O)C(=O)N[C@@H](Cc4ccccc4)C(=O)N[C@@H](C)C(=O)N[C@@H](CC(=O)O)C(=O)N4CCC[C@H]4C(=O)N[C@@H](Cc4ccc(O)cc4)C(=O)N[C@@H](CCCC)C(=O)N[C@H](C(=O)N[C@@H](C)C(N)=O)CSCCC6=O)nn3)nn1)C(=O)N1CCC[C@H]1C(=O)N[C@@H](Cc1ccc(O)cc1)C(=O)N2		NanoString, refers to: Cd7-mRNA	mouse bearing MC38-Nectin-4 tumour, circulating white blood cells	5 mg/kg, 24 h after dosing, unit not given	relative to: vehicle	mRNA level	0.439
[Cu+2].c1cnc2c(c1)c1nccnc1c1cccnc12.c1cnc2c(c1)c1nccnc1c1cccnc12		DNA cleavage	supercoiled pUC19 DNA	100 µM, 4 h, 37 °C, no reducing agent, added: DNA 40 µM		nicked circular DNA form	98%
O=S(=O)(N[C@H]1CCO[C@@H](C2c3ccc(F)cc3CCc3cc(F)ccc32)C1)c1ccc(OC(F)(F)F)cc1		H&E staining	D341-Luc, athymic nude mouse, intraventricular leptomeningeal disease model, spinal column	dose not given	relative to: vehicle	metastasis area	decreased
CC(C)C[C@H](NC(=O)CNC(=O)[C@H](CCCCN)NC(=O)[C@@H](N)CC(C)C)C(=O)N[C@@H](C)C(=O)N[C@@H](C)C(=O)N[C@@H](CCCCN)C(=O)N[C@@H](CC(C)C)C(=O)N[C@@H](CC(C)C)C(=O)NCC(=O)N[C@@H](CC(C)C)C(=O)N[C@@H](CCCCN)C(=O)N[C@@H](CCCCN)C(=O)O		absorbance at 734 nm		1 mg/mL, 5 min, room temperature		ABTS radical scavenging	0.176 fraction (0-1)
NNC(=O)c1ccccc1		hydrazine ligation kinetics, absorbance		concentration not given, 35 s, added: 2-formylphenylboronic acid		normalised absorbance	0.733
O=C1NC(=O)c2c1c1cc(F)c[n+]3c1c1c2c2cc(O)ccc2[n]1[Ru-4]312([N]=C=S)[S+]3CC[S+]1CC[S+]2CC3 (stereo not drawn)	SGK1	enzyme activity		100 nM, human enzyme, added: 10 µM ATP	relative to: untreated	remaining activity	51%
CCc1nnc(-c2c(OC)cc(-c3cnc4cc(-c5cnn(C)c5)ccn34)cc2OC)o1		histomorphometry	male C57BL/6J mouse, tibia	oral gavage, 10 mg/kg once daily, 3 wk		mineral apposition rate	0.658 ± 0.039 µm/day
CSCC[C@H](NC(=O)[C@H](CCC(N)=O)NC(=O)[C@H](CCCCN)NC(=O)[C@H](CCCNC(=N)N)NC(=O)[C@H](Cc1ccc(O)cc1)NC(=O)[C@H](CCCNC(=N)N)NC(=O)[C@H](CO)NC(=O)[C@H](Cc1ccc(O)cc1)NC(=O)[C@H](CO)NC(=O)[C@H](CC(=O)O)NC(=O)[C@@H](NC(=O)[C@@H](N)Cc1ccccc1)[C@@H](C)O)C(=O)N[C@@H](C)C(=O)N[C@H](C(=O)N[C@@H](CCCCN)C(=O)N[C@@H](CCCCN)C(=O)N[C@@H](Cc1ccc(O)cc1)C(=O)N[C@@H](CC(C)C)C(=O)N[C@@H](C)C(=O)N[C@@H](C)C(=O)N[C@H](C(=O)N[C@@H](CC(C)C)C(=O)NCC(=O)N[C@@H](CCCCN)C(=O)N[C@@H](CCCNC(=N)N)C(=O)N[C@@H](Cc1ccc(O)cc1)C(=O)N[C@@H](CCCCN)C(=O)N[C@@H](CCC(N)=O)C(=O)N[C@@H](CCCCn1cc(C[C@H](NC(=O)CNC(=O)[C@H](CO)NC(=O)[C@H](CCCNC(=N)N)NC(=O)[C@H](CO)NC(=O)[C@H](CC(C)C)NC(=O)[C@H](CC(C)C)NC(=O)CNC(=O)[C@H](C)NC(=O)[C@H](CC(C)C)NC(=O)[C@H](CCCNC(=N)N)NC(=O)[C@H](Cc2c[nH]cn2)NC(=O)[C@@H](NC(=O)[C@@H](N)C(C)C)[C@@H](C)O)C(=O)N[C@H](C(=O)N[C@H](C(=O)N[C@@H](CCCCN)C(=O)N[C@@H](CC(N)=O)C(=O)N[C@@H](CC(N)=O)C(=O)N[C@@H](Cc2ccccc2)C(=O)N[C@H](C(=O)N2CCC[C@H]2C(=O)N[C@H](C(=O)N[C@@H](CC(N)=O)C(=O)N[C@H](C(=O)NCC(=O)N[C@@H](CO)C(=O)N[C@@H](CCCCN)C(=O)N[C@@H](C)C(=O)N[C@@H](Cc2ccccc2)C(N)=O)C(C)C)[C@@H](C)O)C(C)C)C(C)C)C(C)C)nn1)C(=O)N[C@H](C(=O)N[C@@H](CCCCN)C(=O)N[C@@H](CC(N)=O)C(=O)N[C@@H](CCCCN)C(N)=O)C(C)C)C(C)C)C(C)C	Vasoactive intestinal polypeptide receptor 2 (VIPR2, Homo sapiens, UniProt P41587)	cAMP accumulation, antagonist	COS-7 transfected	from pA2, single concentration, added: PACAP-38		Kb	7.41 µM
CC(C)C[C@@H]1NC(=O)[C@@H](Cc2c[nH]c3ccccc23)NC(=O)[C@H](CCCNC(=N)N)NC(=O)[C@@H](CCC(=O)O)NC(=O)[C@H](CCC(N)=O)NC(=O)[C@@H](CCC(=O)O)NC(=O)[C@H](CCCNC(=N)N)NC(=O)[C@@H](Cc2c[nH]c3ccccc23)NC1=O		Luminex, refers to: IL3	LDLr-/- mice, Western diet, liver	dose not given, 4 weeks		cytokine level	31 ± 15 pg/g tissue
COc1ccccc1-c1n[nH]c2nc(NC3CCN(C(=O)Cc4ccc(F)cc4F)CC3)ncc12		bead binding, competition bead pull-down, refers to: LINJ.19.1590	Leishmania donovani extract	10 µM	relative to: vehicle	relative abundance	1.07
CO[C@H]1CC=C2CCN3CCC4=C(CC(=O)CC4)[C@]23C1		intermittent two-bottle choice	Wistar rat, 20% ethanol drinking	subcutaneous, 10 mg/kg, 6 h	relative to: ethanol over total fluid intake	ethanol preference	46 ± 4%

A few entries again:
Compound	tested on	test	test system	conditions	scale	endpoint	result
NC(=NN=Cc1cccs1)[S][Ru+]([Cl])([P](c1ccccc1)(c1ccccc1)c1ccccc1)[P](c1ccccc1)(c1ccccc1)c1ccccc1.[Cl-]		DPPH scavenging, absorbance				IC50	44 µM
O=C1NC(=O)c2c1c1cc(F)c[n+]3c1c1c2c2cc(O)ccc2[n]1[Ru-4]312([N]=C=S)[S+]3CC[S+]1CC[S+]2CC3 (stereo not drawn)	SGK1	enzyme activity		100 nM, human enzyme, added: 10 µM ATP	relative to: untreated	remaining activity	51%
Cc1ccc(S(=O)(=O)N2CC2C(=O)N(C)C)cc1 (stereo not drawn)			mouse, Lewis lung carcinoma	intraperitoneal, 170 mg/kg, 16 doses, day 11		tumour volume	604 mm3
